Measurements collected from several papers.
Each line is one published result; not all experiments were run side by side. Numbers after ± are the reported error.

SMILES	assay	test system	setting	scale	endpoint	result
CCCC1OC2CC3C4CCC5=CC(=O)C=CC5(C)C4C(O)CC3(C)C2(C(=O)COC(=O)CN)O1 (centres unmarked)		diluted rat plasma	200 µg/mL, 37 °C, 5.7-fold dilution, 2% DMSO		time to rapid hydrolysis	≤ 6 h
NS(=O)(=O)c1ccc(-n2cc(Cn3c(=O)c(Cc4ccccc4)nc4ccccc43)nn2)cc1	MTT	rat primary colonocytes, Albino rat, male	72 h, concentration at 100% viability		safe concentration	0.193 ± 0.017 µM
CC(F)C(=O)NCCOCCOCCOCC(=O)N[C@@H](CCC(=O)NCCCC[C@@H]1NC(=O)[C@@H](Cc2ccc(O)cc2)NC(=O)[C@H](CC(=O)O)NC(=O)CNC(=O)[C@H](CCCNC(=N)N)NC1=O)C(=O)NCCCC[C@@H]1NC(=O)[C@@H](Cc2ccc(O)cc2)NC(=O)[C@H](CC(=O)O)NC(=O)CNC(=O)[C@H](CCCNC(=N)N)NC1=O (some centres unmarked) [fluorine-18 labelled]		female athymic nude mouse, U-87 MG xenograft, kidney	dose not given, 1 h		kidney uptake	2.5 ± 0.4 %ID/g
Brc1ccc(Nc2nc(NN=Cc3c[nH]c4ccccc34)nc(N3CCOCC3)n2)cc1		mouse liver microsomes	0.1 µM, pH 7.4		metabolic bioavailability	20.1%
O=c1nc(NO)ccn1[C@@H]1O[C@H](CO)[C@@H](O)[C@H]1O	measured: CYP2C8	normal rat, liver	oral, 80 mg/kg twice daily, 5 days	relative to: untreated rats	protein level	0.6 fold
NCCCC(=O)OCC(=O)c1cc(F)c(O)c(F)c1F.O=C(O)C(F)(F)F	photolysis, measured: rearranged acid appearance	aqueous HEPES buffer with LiClO4	pH 7.3		quantum yield	0.04
Cn1c(=O)oc2ccc(-c3ccc(CC(C#N)NC(=O)C4CNCCCO4)c(F)c3)cc21 (centres unmarked)		human	oral, 10 mg once daily, TEAE, multiple ascending dose		abdominal pain incidence	11.1%
[11CH3]c1ccc2nc(C3CCC3)n(-c3ccc4[nH]ncc4c3)c2n1	extrapolated from mouse	standard human, Lower large intestine wall			absorbed dose	5.5 µSv/MBq
CC(=O)[CH](C(C)=O)[Pt-2]1([S+](C)C)[O]C(C)=CC(C)=[O+]1 (centres unmarked)	measured: platinum	rat, whole blood	intravenous, dose not given		clearance	2.6 mL/h
CC(C)(O)c1ncc([S@](N)(=O)=NC(=O)Nc2c3c(cc4c2CCC4)CCC3)s1		healthy human volunteers, plasma	oral, 50 mg twice daily, day 14, fed, enteric-coated tablet		Tmax	2.25 h
C[C@H](NC(=O)COC(=O)[C@H](C)NC(=O)CO)C(=O)O		water	pH 3, 37 °C		depolymerization half-life	298 h
O=C(O)/C=C/c1ccc(NC(=O)C2(NC(=O)c3ccc4c(C5CCCCC5)c5n(c4c3)CC(=O)Nc3ccccc3-5)CCCC2)cc1		rat	intravenous, 2 mg/kg		clearance	13 mL/min/kg
O=C([O-])CN1CCN(CC(=O)[O-])CCN(CC(=O)NC[C@H]2CC[C@H](C(=O)N[C@H](Cc3cnc4ccccc4c3)C(=O)NCCCC[C@H](NC(=O)N[C@@H](CCC(=O)O)C(=O)O)C(=O)O)CC2)CCN(CC(=O)[O-])CC1.[64Cu+2]	PET/CT dosimetry OLINDA/EXM	healthy volunteers, liver	up to 24 h post-injection		absorbed dose	0.0987 mGy/MBq
CCc1nc(N)nc(N)c1C#CC(C)c1cc(-c2cc(C)nc(C)c2)ccc1Cl (centres unmarked)		pooled human hepatocytes	10 µM, 4 h		number of metabolites	10
COc1ccc2cc(-c3ccc(-c4ccc(C)cn4)nc3)oc2c1	TCSPC	benzene			radiative decay rate constant	0.58 ns⁻¹
COC(=O)c1ccc(CCc2cc3cc4nc(c(OC)c5[nH]c(cc6nc(cc2[nH]3)CC6(C)C)cc5CCCNC(=O)OC(C)(C)C)C(=O)C4(C)C)cc1		DMF	room temperature		B band absorption maximum	397 nm

SMILES	assay	test system	setting	scale	endpoint	result
CC(C)c1cnc(-c2cc(Cl)ccc2F)cc1Nc1ccncc1C(=O)NC(CO)CO		human patients	oral, dose not given, worst grade 2		patients with any TRAE	19%
N=C(N)NCCC[C@@H]1NC(=O)[C@H](Cc2c[nH]c3ccccc23)NC(=O)[C@@H](CC2CCCCC2)NC(=O)[C@@H]2CCCN2C(=O)[C@@H](NC(=O)CCc2ccccc2)CCCNC1=O		C57BL/6J mouse, spinal cord	intravenous, 1 mg/kg, single dose, two-compartment model		redistribution rate constant (K21)	6.59 h⁻¹
COc1ccc(/N=N/c2ccc(OC[C@@H](O)CNC(C)C)cc2)cc1	UV/Vis spectroscopy	Epac buffer with 0.5 % DMSO	50 µM, together with: 365 nm light, 0.1 mW/mm^2		trans to cis time constant	3.1 s⁻¹
CNC(CC(C)C)C(=O)NC1C(=O)NC(CC(N)=O)C(=O)NC2C(=O)NC3C(=O)NC(C(=O)NC(C(=O)NCCCNC(=N)N)c4cc(O)cc(O)c4-c4cc3ccc4O)C(O)c3ccc(c(Cl)c3)Oc3cc2cc(c3OC2OC(CO)C(O)C(O)C2OC2CC(C)(NCc3ccc(-c4ccc(Cl)cc4)cc3)C(O)C(C)O2)Oc2ccc(cc2Cl)C1O (centres unmarked)		mice	intravenous, 10 mg/kg		clearance	1.5 mL/min/kg
COc1cc(C)c(Cc2ccc(O)cc2)cc1[C@@H]1S[C@H](CO)[C@@H](O)[C@H](O)[C@H]1O		Japanese T2DM patients, urine	0.5 mg luseogliflozin, day 7, once daily	relative to: dose	urinary excretion 0-24 h	10.4 ± 1.65%
CCCCCCCCCCCC(=O)N[C@@H](CCCCN)C(=O)N[C@@H](CCCCN)C(=O)N[C@@H](CCCCN)C(=O)N[C@@H](CCCCN)C(=O)N[C@@H](CCCCN)C(N)=O	dynamic light scattering	self-assembled micelles	25 °C		hydrodynamic radius	~190 nm
CC/C=C\C/C=C\C/C=C\C/C=C\C/C=C\CCCCOC(CC)C(=O)O (centres unmarked)	[14C] label	male Wistar rat, kidney cortex	oral, 100 mg/kg, 8 h		radioactivity concentration	38.5 µg equiv/g
NCCCC(=O)OCC(=O)c1ccc(O)cc1F.O=C(O)C(F)(F)F	photolysis, measured: GABA appearance	aqueous HEPES buffer with LiClO4	pH 8.2		quantum yield	0.06
O=C(NCCCN(CCCCN(CCCNC(=O)c1cccc(=O)n1[O-])C(=O)c1cccc(=O)n1[O-])C(=O)c1cccc(=O)n1[O-])c1cccc(=O)n1[O-].[89Zr+4]	radio-TLC	PBS	7 d, pH 7.4, 37 °C, together with: Gd^3+ 10-fold excess		intact complex	94.5 ± 4.1%
CCNC(=O)[C@@]1(c2ccccc2)C[C@H]1CN		cynomolgus monkey, male	oral, 30 mg/kg, 0-24 h	relative to: dose	urinary excretion	12.4%
COC(=O)C(c1ccccc1Cl)N1CCC(SCC(=O)c2cccc(OC)c2)C(=CC(=O)O)C1 (mixture of isomers)	HPLC-MS/MS	feline citrate plasma	100 ng/mL, 24 h, -80 °C, storage stability		deviation from nominal	3%
CCCC[C@@H]1NC(=O)[C@H](Cc2ccc(O)cc2)NC(=O)[C@@H]2CCCN2C(=O)[C@H](CC(=O)O)NC(=O)[C@H](C)NC(=O)[C@H](Cc2ccccc2)NC(=O)[C@@H]2CSCCC(=O)N3CN(CN(C3)C(=O)CCSC[C@@H](C(=O)N[C@@H](C)C(N)=O)NC1=O)C(=O)CCSC[C@H](NC(C)=O)C(=O)N[C@@H](CC(C)(C)C)C(=O)N1CCC[C@H]1C(=O)N[C@@H](CCC(=O)O)C(=O)N[C@H](CCCCNC(=O)CCc1cn(CCOCCOCCOCCN(CCOCCOCCOCCC(=O)N[C@H]3CSCCC(=O)N4CN5CN(C4)C(=O)CCSC[C@H](NC(=O)[C@@H](CC(=O)O)NC(=O)[C@H](Cc4cccc6ccccc46)NC(=O)[C@@H]4CCCN4C3=O)C(=O)N[C@@H](CCSC)C(=O)N[C@@H](CCCCNC(=N)N)C(=O)N[C@@H](CC(=O)O)C(=O)N[C@@H](Cc3c[nH]c4ccccc34)C(=O)N[C@@H](CO)C(=O)N[C@@H]([C@@H](C)O)C(=O)N3CCC[C@H]3C(=O)N3C[C@H](O)C[C@H]3C(=O)N[C@@H](Cc3c[nH]c4ccccc34)C(=O)N[C@H](C(N)=O)CSCCC5=O)CCOCCOCCOCCn3cc(CCC(=O)NCCCC[C@H]4NC(=O)[C@H](CCC(=O)O)NC(=O)[C@@H]5CCCN5C(=O)[C@H](CC(C)(C)C)NC(=O)[C@@H](NC(C)=O)CSCCC(=O)N5CN6CN(C5)C(=O)CCSC[C@H](NC(=O)[C@H](Cc5ccc(O)cc5)NC(=O)[C@@H]5CCCN5C4=O)C(=O)N[C@@H](Cc4ccccc4)C(=O)N[C@@H](C)C(=O)N[C@@H](CC(=O)O)C(=O)N4CCC[C@H]4C(=O)N[C@@H](Cc4ccc(O)cc4)C(=O)N[C@@H](CCCC)C(=O)N[C@H](C(=O)N[C@@H](C)C(N)=O)CSCCC6=O)nn3)nn1)C(=O)N1CCC[C@H]1C(=O)N[C@@H](Cc1ccc(O)cc1)C(=O)N2		cynomolgus monkey, plasma	intravenous, infusion		half-life	6.7 h
Cc1ccccc1/N=N/c1ccc(/N=N/c2c(O)ccc3ccccc23)c(C)c1		rat whole blood extract	0.5 µg/L, 30 days, -20 °C, long-term storage		stability deviation	0.6%
CC(C)[C@H](NC(=O)[C@@H]1CCCN1C(=O)[C@H](CCCNC(=N)N)NC(=O)[C@H](CS)NC(=O)[C@H](Cc1c[nH]c2ccccc12)NC(=O)[C@H](CCCNC(=N)N)NC(=O)[C@@H](Cc1ccccc1)NC(=O)[C@H](Cc1c[nH]cn1)NC(=O)[C@H](CCC(=O)O)NC(=O)[C@H](CS)NC(=O)[C@H](CS)NC(=O)CNC(=O)[C@@H]1CC(=O)N[C@@H](CCCNC(=N)N)C(=O)NCC(=O)N[C@@H](CC(=O)O)C(=O)N[C@H](Cc2ccc(O)cc2)C(=O)N1)C(N)=O [technetium-99m labelled]		C57 mouse, female, B16/F1 melanoma, tumor	intravenous, 0.037 MBq, 2 h		tissue uptake	11.5 ± 1.01 %ID/g
COc1ccc(/C=C/c2ccc(-c3ccc(C)cn3)nc2)cc1	TCSPC	acetonitrile	zinc complex		radiative decay rate constant	0.15 ns⁻¹
CC[C@H](C)[C@H](NC(=O)[C@H](Cc1ccc(O)cc1)NC(=O)[C@H](CCCNC(=N)N)NC(=O)[C@H](CCCNC(=N)N)NC(=O)[C@H](CC(C)C)NC(=O)[C@H](CC(=O)O)NC(=O)[C@H](C)NC(=O)[C@H](C)NC(=O)[C@H](Cc1ccc(O)cc1)NC(=O)[C@H](CCC(N)=O)NC(=O)[C@H](C)NC(=O)[C@H](CCSC)NC(=O)[C@H](CCC(N)=O)NC(=O)[C@H](CCC(=O)O)NC(=O)[C@@H]1CCCN1C(=O)[C@@H](NC(=O)[C@H](C)NC(=O)[C@H](CC(N)=O)NC(=O)[C@H](CC(=O)O)NC(=O)CNC(=O)[C@@H]1CCCN1C(=O)[C@H](Cc1ccc(O)cc1)NC(=O)[C@@H](NC(=O)[C@@H]1CCCN1C(=O)[C@H](CCC(=O)O)NC(=O)[C@H](CC(C)C)NC(=O)[C@@H]1CCCN1C(=O)[C@H](C)N)C(C)C)[C@@H](C)O)C(=O)N[C@@H](CC(N)=O)C(=O)N[C@@H](CCSC)C(=O)N[C@@H](CC(C)C)C(=O)N[C@H](C(=O)N[C@@H](CCCNC(=N)N)C(=O)N1CCC[C@H]1C(=O)N[C@@H](CCCNC(=N)N)C(=O)N[C@@H](Cc1ccc(O)cc1)C(N)=O)[C@@H](C)O	dynamic light scattering	PBS	4 µM, pH 7.4, larger population, no SSM		hydrodynamic diameter	773 ± 163 nm

For quick reference, copied from above:
SMILES	assay	test system	setting	scale	endpoint	result
O=C([O-])CN1CCN(CC(=O)[O-])CCN(CC(=O)NC[C@H]2CC[C@H](C(=O)N[C@H](Cc3cnc4ccccc4c3)C(=O)NCCCC[C@H](NC(=O)N[C@@H](CCC(=O)O)C(=O)O)C(=O)O)CC2)CCN(CC(=O)[O-])CC1.[64Cu+2]	PET/CT dosimetry OLINDA/EXM	healthy volunteers, liver	up to 24 h post-injection		absorbed dose	0.0987 mGy/MBq
Brc1ccc(Nc2nc(NN=Cc3c[nH]c4ccccc34)nc(N3CCOCC3)n2)cc1		mouse liver microsomes	0.1 µM, pH 7.4		metabolic bioavailability	20.1%
CC(C)(O)c1ncc([S@](N)(=O)=NC(=O)Nc2c3c(cc4c2CCC4)CCC3)s1		healthy human volunteers, plasma	oral, 50 mg twice daily, day 14, fed, enteric-coated tablet		Tmax	2.25 h
